Literature values that unrelated publications cite.
Each line is one published result; not all experiments were run side by side.

For `COc1cnc(-n2cnc(C)n2)c2[nH]cc(C(=O)C(=O)N3CCN(C(=O)c4ccccc4)CC3)c12`, the Cmax was 4000 nM (human, plasma; concentration not given).
The Cmax of `CCCC[C@H](NC(=O)[C@@H]1[C@@H]2[C@H](CN1C(=O)[C@@H](NC(=O)NC1(CS(=O)(=O)C(C)(C)C)CCCCC1)C(C)(C)C)C2(C)C)C(=O)C(=O)NC1CC1` is reported as 1900 nM (human patients, plasma; dose not given, single or steady-state dosing, added: with co-medication).
`CC1(C)CCC(CN2CCN(c3ccc(C(=O)NS(=O)(=O)c4ccc(NCC5CCOCC5)c([N+](=O)[O-])c4)c(Oc4cnc5[nH]ccc5c4)c3)CC2)=C(c2ccc(Cl)cc2)C1` gave a Cmax of 0.5 µg/mL (human; oral, 100 mg single dose).
With `O=c1c(O)c(-c2ccc(O)c(O)c2)oc2cc(O)cc(O)c12` the Cmax was 7650 nM (human healthy volunteers; oral, 100 mg).
The Cmax of `O=C(O)CSc1nnc(Br)n1-c1ccc(C2CC2)c2ccccc12` is reported as 30000 nM (human, plasma total; 400 mg).
For `C=CC(=O)N1CCC([C@@H]2CCNc3c(C(N)=O)c(-c4ccc(Oc5ccccc5)cc4)nn32)CC1`, the Cmax was ≤ 1.34 µg/mL (human; concentration not given, established safety range).
`CCc1nn(CCO)c(CC)c1Oc1cc(C#N)cc(C#N)c1` gave a Cmax of 1850 nM (human, plasma total; 250 mg).
`C[C@]12C=CC(=O)C=C1CC[C@@H]1[C@@H]2C(=O)C[C@@]2(C)[C@H]1CC[C@]2(O)C(=O)CO` has a Cmax of 203 nM (human, plasma; concentration not given, median of reported values).
For `Cc1cc(/C=C/C#N)cc(C)c1Nc1ccnc(Nc2ccc(C#N)cc2)n1`, the Cmax was 500 nM (human, plasma total; 25 mg).
For `CNC(=C[N+](=O)[O-])NCCSCc1ccc(CN(C)C)o1`, the Cmax was 2120 nM (human, plasma; concentration not given, median of reported values).
With `COC(=O)[C@H](c1ccccc1)[C@H]1CCCCN1` the Cmax was 0.005 µg/mL (human, CES1 wild type, plasma; oral, 10 mg methylphenidate, single dose, median).
For `COc1ccccc1Oc1c(NS(=O)(=O)c2ccc(C(C)(C)C)cc2)nc(-c2ncccn2)nc1OCCO`, the Cmax was 2030 nM (human; 125 mg, 5.5 days).
With `O=c1[nH]c2ccccc2n1CCCN1CCC(n2c(=O)[nH]c3cc(Cl)ccc32)CC1` the Cmax was 41 nM (human, plasma; concentration not given, median of reported values).
The Cmax of `CC(C)(O)c1ccc2c(c1)C(=CCCN1CCC(O)(c3ccc(Cl)cc3)C(C)(C)C1)c1cccnc1CO2` (stereo not drawn) is reported as 9 nM (human; 10 mg once daily).
For `CC(C)(C)NC(=O)[C@@H]1C[C@@H]2CCCC[C@@H]2CN1C[C@@H](O)[C@H](Cc1ccccc1)NC(=O)[C@H](CC(N)=O)NC(=O)c1ccc2ccccc2n1`, the Cmax was 1790 nM (human, plasma; concentration not given, median of reported values).
`CCC[C@H](NC(=O)[C@@H]1[C@H]2CCC[C@H]2CN1C(=O)[C@@H](NC(=O)[C@@H](NC(=O)c1cnccn1)C1CCCCC1)C(C)(C)C)C(=O)C(=O)NC1CC1` gave a Cmax of 5200 nM (human patients, plasma; dose not given, single or steady-state dosing, added: with co-medication).
For `CC(C)(C)c1ccc(C(O)CCCN2CCC(C(O)(c3ccccc3)c3ccccc3)CC2)cc1` (stereo not drawn), the Cmax was 3 nM (human, plasma; concentration not given, median of reported values).
For `COc1ccc2c(O[C@@H]3C[C@H]4C(=O)N[C@]5(C(=O)NS(=O)(=O)C6CC6)C[C@H]5/C=C\CCCCN(C)C(=O)[C@@H]4C3)cc(-c3nc(C(C)C)cs3)nc2c1C`, the Cmax was 14500 nM (human patients, plasma; dose not given, single or steady-state dosing, added: with co-medication).

Excerpt of the above:
`CCC[C@H](NC(=O)[C@@H]1[C@H]2CCC[C@H]2CN1C(=O)[C@@H](NC(=O)[C@@H](NC(=O)c1cnccn1)C1CCCCC1)C(C)(C)C)C(=O)C(=O)NC1CC1` gave a Cmax of 5200 nM (human patients, plasma; dose not given, single or steady-state dosing, added: with co-medication).
For `CC(C)(C)c1ccc(C(O)CCCN2CCC(C(O)(c3ccccc3)c3ccccc3)CC2)cc1` (stereo not drawn), the Cmax was 3 nM (human, plasma; concentration not given, median of reported values).
